{"data": "Measurements collected from several papers", "note": "Lines come from different studies, so protocols differ. Several values in a cell are separate wells, animals, samples, runs or records. ± gives the spread as reported."}
{"SMILES": "O=C(NS(=O)(=O)c1cccs1)c1cc2ccccc2n1Cc1ccc(Br)c2ccccc12", "test system": "mouse, plasma", "setting": "oral, 2 mg/kg", "half-life": "0.84 h"}
{"SMILES": "CN(Cc1cc(C2CC2)on1)C(=O)c1cccc(-c2ccc(F)cc2)c1", "test system": "ICR/CD-1 mouse, male, liver microsomes", "setting": "2 µM, pH 7.5, added: 1-aminobenzotriazole 500 µM, preincubated 30 min", "half-life": "> 2 h"}
{"SMILES": "COc1ccc2nc(NC(=O)c3ccc(C(N)c4ccccc4)cc3)sc2c1 (centres unmarked)", "test system": "CD-1 mouse, mouse liver S9 fraction", "setting": "2 µM", "half-life": "3.03 h"}
{"SMILES": "O=c1c(-c2cnn(-c3ccccc3)c2)c(C(F)(F)F)oc2c(O)c(O)ccc12", "test system": "mouse", "setting": "intraperitoneal, 100 mg/kg, DMSO vehicle", "half-life": "7.2 h"}
{"SMILES": "CCC1(CC)CC(=O)N(C2c3cc(C(=O)NC4c5ccccc5CC4O)ccc3OC2(C)COC)C(=N)N1 (centres unmarked)", "test system": "C57BL/6 mouse male, plasma", "half-life": "4.2 ± 0.6 h"}
{"SMILES": "O=C(c1ccccc1)N1C(c2ccc(OCC3CCN(CCCF)C3)cc2)c2ccc(O)cc2CC12CC2 (centres unmarked)", "test system": "C57BL/6J mouse, plasma", "setting": "intraperitoneal, 25 mg/kg", "half-life": "3.7 h and 3.57 h"}
{"SMILES": "Nc1nc2cnc(C(=O)N3CCOC[C@@H]3c3ccc(C(F)(F)F)cc3)cc2c2c1COC2", "test system": "mouse", "setting": "5 mg/kg", "half-life": "1.6 h"}
{"SMILES": "Cc1ncsc1-c1ccc(CNC(=O)[C@@H]2C[C@@H](O)CN2C(=O)[C@@H](NC(=O)COCC(C)(COCCOCCOCCNC(=O)C[C@@H]2N=C(c3ccc(Cl)cc3)c3c(sc(C)c3C)-n3c(C)nnc32)COCCOCCOCCNC(=O)C[C@@H]2N=C(c3ccc(Cl)cc3)c3c(sc(C)c3C)-n3c(C)nnc32)C(C)(C)C)cc1", "test system": "C57BL/6 mouse male, plasma", "setting": "intravenous, 5 mg/kg", "half-life": "2.13 h"}
{"SMILES": "Cc1c(-c2c3c(N)n[nH]c(=O)c3nn2-c2ccc(NC(=O)/C=C/CN(C)C)cc2)oc2cc(F)ccc12", "test system": "BALB/c nude mouse, whole blood", "setting": "1 µM, 37 °C", "half-life": "1.44 h"}
{"SMILES": "Cn1cnc([N+](=O)[O-])c1Sc1ccccc1C(=O)NCCC(N)=O", "test": "LC-MS/MS", "test system": "CD-1 mouse, whole blood", "setting": "1 µM, 37 °C", "half-life": "0.43 h"}
{"SMILES": "O=S(=O)(N[C@H]1CCC[C@@H](N2c3ccccc3CCc3ccccc32)[C@@H]1O)c1ccc(OC(F)(F)F)cc1", "test system": "mouse, plasma", "setting": "oral, 100 mg/kg, solution", "half-life": "5.1 h"}
{"SMILES": "O=S(=O)(NCc1ccncc1)c1ccc(C2CCCCC2)cc1", "test system": "C57BL/6J mouse, male, peripheral fat", "setting": "intraperitoneal, 0.3 mg/kg", "half-life": "1.1 h"}
{"SMILES": "Cl.NCc1ccc2c(c1)CN(C1CCC(=O)NC1=O)C2=O (centres unmarked)", "test system": "male CD-1 mouse, whole blood", "half-life": "> 3 h"}
{"SMILES": "CCCCCCCCCCCCCCCC(=O)N[C@@H](CCC(=O)NCCCC[C@H](NC(=O)[C@H](CCC(N)=O)NC(=O)[C@H](Cc1c[nH]cn1)NC(=O)[C@@H](NC(=O)[C@H](CCCCN)NC(=O)[C@H](CC(=O)O)NC(=O)[C@H](CCSC)NC(=O)[C@H](C)NC(=O)[C@@H](NC(=O)[C@H](CO)NC(=O)[C@H](Cc1ccc(O)cc1)NC(=O)[C@H](CC(=O)O)NC(=O)[C@H](CO)NC(=O)[C@@H](NC(=O)[C@H](Cc1ccccc1)NC(=O)[C@@H](NC(=O)CNC(=O)[C@H](CCC(=O)O)NC(=O)[C@H](C)NC(=O)[C@H](Cc1ccc(O)cc1)NCC(F)(F)F)[C@@H](C)O)[C@@H](C)CC)[C@@H](C)CC)[C@@H](C)CC)C(=O)N[C@@H](CC(=O)O)C(=O)N[C@@H](Cc1ccccc1)C(=O)N[C@H](C(=O)N[C@@H](CC(N)=O)C(=O)N[C@@H](Cc1c[nH]c2ccccc12)C(=O)N[C@@H](CC(C)C)C(=O)N[C@@H](CC(C)C)C(=O)N[C@@H](C)C(=O)N[C@@H](CCC(N)=O)C(=O)N[C@@H](CCCCN)C(=O)NCC(=O)N[C@@H](CCCCN)C(=O)N[C@@H](CCCCN)C(=O)N[C@@H](CC(N)=O)C(=O)N[C@@H](CC(=O)O)C(=O)N[C@@H](Cc1c[nH]c2ccccc12)C(=O)N[C@@H](CCCCN)C(=O)N[C@@H](Cc1c[nH]cn1)C(=O)N[C@@H](CC(N)=O)C(=O)N[C@H](C(=O)N[C@H](C(=O)N[C@@H](CCC(N)=O)C(=O)O)[C@@H](C)O)[C@@H](C)CC)C(C)C)C(=O)O", "test": "GIPR luciferase bioassay", "test system": "C57BL/6 mouse, male, serum", "setting": "subcutaneous, 1.25 µg", "half-life": "9.7 h"}
{"SMILES": "C/C(=N\\Nc1ncnc2sc3c(c12)CCCC3)c1cc(O)ccc1O", "test system": "ICR mouse, plasma", "setting": "intravenous, 1 mg/kg", "half-life": "1.58 h"}
{"SMILES": "Cc1ccc(OCC(=O)N(Cc2cccs2)c2ccn[nH]2)cc1", "test system": "male CD-1 mouse, plasma", "setting": "oral, 30 mg/kg", "half-life": "0.46 h"}
{"SMILES": "C=CC(=O)Nc1ccc(-n2nc3c(=O)[nH]nc(N)c3c2-c2oc3cc(F)ccc3c2C)cc1", "test system": "BALB/c nude mouse, whole blood", "setting": "1 µM, 37 °C", "half-life": "2.21 h"}
{"note": "Excerpt of the above:"}
{"SMILES": "CCC1(CC)CC(=O)N(C2c3cc(C(=O)NC4c5ccccc5CC4O)ccc3OC2(C)COC)C(=N)N1 (centres unmarked)", "test system": "C57BL/6 mouse male, plasma", "half-life": "4.2 ± 0.6 h"}
{"SMILES": "O=C(c1ccccc1)N1C(c2ccc(OCC3CCN(CCCF)C3)cc2)c2ccc(O)cc2CC12CC2 (centres unmarked)", "test system": "C57BL/6J mouse, plasma", "setting": "intraperitoneal, 25 mg/kg", "half-life": "3.7 h and 3.57 h"}
{"SMILES": "Nc1nc2cnc(C(=O)N3CCOC[C@@H]3c3ccc(C(F)(F)F)cc3)cc2c2c1COC2", "test system": "mouse", "setting": "5 mg/kg", "half-life": "1.6 h"}
